{"data": "Measurements gathered from unrelated publications", "note": "Each numbered part is a random draw from the data of one study; scales do not carry over between parts. Changes are numbered by the printed parent chain."}
{"data": "Sample 1", "target": "CCNB1, cyclin fold, Cln2 fusion (human)", "technique": "yeast growth competition, sequencing", "matrix": "yeast", "setting": "strong parent motif", "relative to": "not given", "direction": "higher = stronger binding", "starting sequence": "E2F1 docking peptide (human); PPVKRRLDFETDH; partner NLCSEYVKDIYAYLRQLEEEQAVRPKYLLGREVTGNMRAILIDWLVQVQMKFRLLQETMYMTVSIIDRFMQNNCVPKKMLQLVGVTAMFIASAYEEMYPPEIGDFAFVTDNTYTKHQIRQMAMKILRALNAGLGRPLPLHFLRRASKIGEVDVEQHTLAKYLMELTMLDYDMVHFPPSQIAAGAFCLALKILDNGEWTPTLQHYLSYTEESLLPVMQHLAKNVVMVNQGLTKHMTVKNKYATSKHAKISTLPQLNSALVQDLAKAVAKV"}
{"Variant": "PPVKRRLDQETDH [F9Q]", "normalised enrichment score": 0.325}
{"Variant": "PPVKRRLDFETFH [D12F]", "normalised enrichment score": 4.67}
{"Variant": "PPVKIRLDFETDH [R5I]", "normalised enrichment score": 2.95}
{"Variant": "PPNKRRLDFETDH [V3N]", "normalised enrichment score": 0.0229}
{"Variant": "PPVKRILDFETDH [R6I]", "normalised enrichment score": 1.92}
{"Variant": "PPVKRRPDFETDH [L7P]", "normalised enrichment score": 0.0633}
{"Variant": "PPQKRRLDFETDH [V3Q]", "normalised enrichment score": 0.417}
{"data": "Sample 2", "target": "TAR DNA-binding protein 43, full length, His tag (TARDBP, Homo sapiens, UniProt Q13148, residues 1-414)", "technique": "RNA Bind-n-Seq", "molecule type": "RNA", "matrix": "in vitro", "concentration": "20 nM", "setting": "6-mer, flanks averaged, single round", "added": "150 mM LiCl", "relative to": "input library", "direction": "higher = stronger binding"}
{"Sequence": "AAGUCU", "6-mer enrichment (R)": 0.825}
{"Sequence": "AGUUAG", "6-mer enrichment (R)": 0.991}
{"Sequence": "CACUGC", "6-mer enrichment (R)": 0.881}
{"Sequence": "CGUUUC", "6-mer enrichment (R)": 0.948}
{"Sequence": "GCGCGC", "6-mer enrichment (R)": 1.08}
{"Sequence": "GUGCAA", "6-mer enrichment (R)": 1}
{"Sequence": "UUGUUG", "6-mer enrichment (R)": 1.36}
{"data": "Sample 3", "target": "RING finger protein unkempt homolog, zinc fingers 1-6, GST-SBP tag (UNK, Homo sapiens, UniProt Q9C0B0, residues 30-357)", "technique": "RNA Bind-n-Seq", "molecule type": "RNA", "matrix": "in vitro", "concentration": "not given", "setting": "RNA with constant flanks, human and mouse sites, ends assumed", "relative to": "input RNA pool", "direction": "higher = stronger binding", "constant ends, left off below": "GGGAGUUCUACAGUCCGACGAUC … CAACAGAGGAUUGAGCAUCA", "chain of UniProt Q9C0B0 (30-357, looked up)": "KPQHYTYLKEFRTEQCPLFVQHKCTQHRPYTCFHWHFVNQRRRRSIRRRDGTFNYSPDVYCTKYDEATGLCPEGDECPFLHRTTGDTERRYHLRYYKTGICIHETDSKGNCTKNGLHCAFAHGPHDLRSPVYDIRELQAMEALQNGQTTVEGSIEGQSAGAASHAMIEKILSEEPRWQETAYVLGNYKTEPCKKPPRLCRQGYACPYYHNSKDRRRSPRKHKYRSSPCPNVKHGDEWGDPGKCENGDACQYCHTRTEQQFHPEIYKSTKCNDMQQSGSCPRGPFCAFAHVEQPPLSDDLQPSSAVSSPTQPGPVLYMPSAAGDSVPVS"}
{"Sequence": "GGAUAGCGAGCCGCGCUGGCGGCGGCGGUGGCCGCGAUGAUGGAGAUCCAGAUGGACGAGGGCGGCGGCGUGGUGGUGUACCAGGACGACUACUGCUCCGGCUCGGUGAUGUCGGAGCGG", "bound/input enrichment": "0.3 ratio"}
{"Sequence": "CUUAUGAUAAUUACCCCGCGGUGGUGUGUAGAAAAGUAUGUAAAUUUGCUCUGUUUUAAGACUUUGAACUACCUCAAGAAGAGGAAUCUAAUACAAUAUUUGUAAUGUUUCCAGAGCUCU", "bound/input enrichment": "0.801 ratio"}
{"Sequence": "GGUACCAGAUUUUCAGGGGUUGAUAUGAAUGCUGCUAGGCUUUUAUUCCACAAACUUAUACAACCUGAUCAUCCGCAGAUAUCUCAGCAGGUGGCAGCUAGUUUGGAAAAGAAUCUUAUU", "bound/input enrichment": "0.162 ratio"}
{"Sequence": "AUAUCUUAUUGCCAUAAACUCCAUGUGGUCCACAGAGACUUGAAACCAGAGAAUGUAGUCUUUUUUGAAAAACAAGGUCUUGUGAAGUUGACAGACUUUGGCUUCAGCAACAAAUUUCAG", "bound/input enrichment": "0.265 ratio"}
{"Sequence": "CUUUUUGCAGGGCUUAUGGUUAAAGUUCCUGUGGGGUUAUAUUUUUCCUGCAAAUUACUUCUUUUCCAAAGUCUGAUGUUGAUGUCCCCUGAAGACAGCGGCUUUUAUGCGACCAUUGUU", "bound/input enrichment": "0.276 ratio"}
{"Sequence": "UCUGGCGUGCCCCUCUUUUAUUUCUUCAACUGGAAUUUUCUCCUUCUACGCACCCUGCAGUUAGUCCUCGAAAGCAUGGACUCAUGGCUGUCGCCAACCCCACUGACACAGUCUGUCCUA", "bound/input enrichment": "0.458 ratio"}
{"Sequence": "GCCAUUGAUAGGAAGCGGCACCAUGUACUACAGACGGCUCAUCCCUCCCCUUUGUCAGUGUAUAGAGGGUUCUUUGGAUGUAGACACUUUUCAAAGACCAAUGAGCUGCUGCAGAAGUCU", "bound/input enrichment": "0.195 ratio"}
{"data": "Single results of other studies"}
{"Substance": "PhoQ, residues 284 288 289 292 302 303 STVVAA", "target": "PhoP, residues 12 14 15 18 19 NQGLL (Escherichia coli, UniProt P23836)", "assay": "Sort-seq, refers to: YFP reporter", "system": "E. coli", "conditions": "PhoQ-PhoP variant library, added: 10 µM Mg2+", "scale": "relative to: high Mg2+ state, higher = stronger signaling", "endpoint": "fold induction", "result": 2.11}
{"note": "For quick reference, copied from above (sample 3):"}
{"Sequence": "AUAUCUUAUUGCCAUAAACUCCAUGUGGUCCACAGAGACUUGAAACCAGAGAAUGUAGUCUUUUUUGAAAAACAAGGUCUUGUGAAGUUGACAGACUUUGGCUUCAGCAACAAAUUUCAG", "bound/input enrichment": "0.265 ratio"}
{"Sequence": "CUUUUUGCAGGGCUUAUGGUUAAAGUUCCUGUGGGGUUAUAUUUUUCCUGCAAAUUACUUCUUUUCCAAAGUCUGAUGUUGAUGUCCCCUGAAGACAGCGGCUUUUAUGCGACCAUUGUU", "bound/input enrichment": "0.276 ratio"}
{"Sequence": "UCUGGCGUGCCCCUCUUUUAUUUCUUCAACUGGAAUUUUCUCCUUCUACGCACCCUGCAGUUAGUCCUCGAAAGCAUGGACUCAUGGCUGUCGCCAACCCCACUGACACAGUCUGUCCUA", "bound/input enrichment": "0.458 ratio"}
